# Measured values collected from several papers.
# Each line is one published result; not all experiments were run side by side. “And” joins repeats or separate records; there may be more than shown.
SMILES,organism,test,test system,conditions,scale,quantity,result
COc1ccc(Nc2cnnc3ccc(-c4cnc(N5CCCN(C)CC5)nc4)cc23)cc1Cl,Schistosoma mansoni,,adult worms,"10 µM, 48 h",direction not given,phenotypic severity score,2
CC1=C(Cc2cn(CCN3CCN(C(=O)OC(C)(C)C)CC3)nn2)C(=O)c2ccccc2C1=O,Schistosoma mansoni,,adult worms,"10 µM, 24 h",,killing,29.6%
COc1ccc(Nc2cnnc3ccc(-c4cnc(N5CCN(C)CC5)nc4)cc23)cc1,Schistosoma mansoni,,adult worms,"10 µM, 5 h",direction not given,phenotypic severity score,0
C[C@H]1c2cccc(O)c2C(=O)C2=C(O)[C@]3(O)C(=O)C(C(N)=O)=C(O)[C@@H](N(C)C)[C@@H]3[C@@H](O)[C@@H]21,Brugia malayi,,SCID mouse,"x42d dosing, 6 weeks post-treatment",,median adult worm burden,7 worms per mouse
COc1ccc(Nc2cnnc3cc(-c4ccc(S(=O)(=O)N5CCN(C)CC5)cc4)ccc23)cc1,Schistosoma mansoni,,adult worms,"10 µM, 24 h",direction not given,phenotypic severity score,0
CC(C)n1ncc2c(C(=O)NCC3(C)CNC3)cc(C3CC3)nc21,Enterovirus D68,cytopathic effect,"RD, US/MO/14-18947",500 nM,,cell protection,93.2% and 101% and 98.5%
CN1CCN(c2ncc(-c3ccc4nncc(Nc5cnccn5)c4c3)cn2)CC1,Schistosoma mansoni,,adult worms,"10 µM, 48 h",direction not given,phenotypic severity score,3
CC1=C(Cn2cc(CNC(=O)OC(C)(C)C)nn2)C(=O)c2ccccc2C1=O,Schistosoma mansoni,,adult worms,"25 µM, 48 h",,killing,54.5%
Cc1ccc(Nc2cnnc3ccc(-c4ccc(N5CCCN(C)CC5)cc4)cc23)cn1,Schistosoma mansoni,,adult worms,"10 µM, 48 h",direction not given,phenotypic severity score,4
CC1=C(Cn2cc(COC3COC3)nn2)C(=O)c2ccccc2C1=O,Schistosoma mansoni,,adult worms,"10 µM, 48 h",,killing,47.9%
CN(C)c1ccc(O)c2c1C[C@H]1C[C@H]3[C@H](N(C)C)C(O)=C(C(N)=O)C(=O)[C@@]3(O)C(O)=C1C2=O,Brugia malayi,,SCID mouse,"dose not given, 6 weeks post-treatment, dosing x28d",,mice with microfilariae,0%
CC1=C(Cn2cc([Si](C)(C)C)nn2)C(=O)c2ccccc2C1=O,Schistosoma mansoni,,adult worms,"10 µM, 24 h",,killing,39.4%
CO[C@H]1/C=C/O[C@@]2(C)Oc3c(C)c(O)c4c(c3C2=O)C2=NC3(CCN(CC(C)C)CC3)NC2=C(NC(=O)/C(C)=C\C=C\[C@H](C)[C@H](O)[C@@H](C)[C@@H](O)[C@@H](C)[C@H](OC(C)=O)[C@@H]1C)C4=O,Mycobacteroides abscessus,"intracellular growth, visual read","THP-1 derived macrophages, ATCC 19977",,,IC50,933 nM
CC1=C(Cn2cc(CO)nn2)C(=O)c2ccccc2C1=O,Schistosoma mansoni,,adult worms,"10 µM, 72 h",,killing,43.8%
Nc1nc(-c2ccccc2)nc2[nH]nc(Nc3ccc(C(F)(F)F)cc3)c12,coxsackievirus B3,,"31-1-93, NMRI mice, CVB3 chronic myocarditis","oral, 100 mg/kg twice daily, day 24, dosed days 0 to 6, score scale 0 to 7",direction not given,clinical score,0

# A few entries again:
SMILES,organism,test,test system,conditions,scale,quantity,result
Nc1nc(-c2ccccc2)nc2[nH]nc(Nc3ccc(C(F)(F)F)cc3)c12,coxsackievirus B3,,"31-1-93, NMRI mice, CVB3 chronic myocarditis","oral, 100 mg/kg twice daily, day 24, dosed days 0 to 6, score scale 0 to 7",direction not given,clinical score,0
